Measured values gathered from unrelated publications.
Each line is one published result; not all experiments were run side by side.
rep papain-like protease: Replicase polyprotein 1ab, papain-like protease (rep, Porcine epidemic diarrhea virus, UniProt P0C6Y4)
AMY2: Pancreatic alpha-amylase (AMY2, Sus scrofa, UniProt P00690)
Sequence of UniProt P00690 (whole entry, looked up): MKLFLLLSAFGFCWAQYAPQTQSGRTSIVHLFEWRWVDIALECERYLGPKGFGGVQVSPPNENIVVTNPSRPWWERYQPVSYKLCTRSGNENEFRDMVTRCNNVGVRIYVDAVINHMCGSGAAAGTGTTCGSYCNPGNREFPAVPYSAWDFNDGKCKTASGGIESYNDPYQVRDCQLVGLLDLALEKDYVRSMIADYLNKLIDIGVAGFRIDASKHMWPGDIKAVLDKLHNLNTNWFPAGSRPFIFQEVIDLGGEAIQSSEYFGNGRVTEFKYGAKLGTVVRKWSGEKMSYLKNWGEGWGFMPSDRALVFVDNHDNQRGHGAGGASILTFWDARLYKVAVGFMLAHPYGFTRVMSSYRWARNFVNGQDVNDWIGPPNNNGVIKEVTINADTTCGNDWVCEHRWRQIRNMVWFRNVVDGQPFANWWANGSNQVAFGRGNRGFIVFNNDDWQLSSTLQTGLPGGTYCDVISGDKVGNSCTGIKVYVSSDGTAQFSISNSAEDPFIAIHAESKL
Sequence of UniProt Q02750 (whole entry, looked up): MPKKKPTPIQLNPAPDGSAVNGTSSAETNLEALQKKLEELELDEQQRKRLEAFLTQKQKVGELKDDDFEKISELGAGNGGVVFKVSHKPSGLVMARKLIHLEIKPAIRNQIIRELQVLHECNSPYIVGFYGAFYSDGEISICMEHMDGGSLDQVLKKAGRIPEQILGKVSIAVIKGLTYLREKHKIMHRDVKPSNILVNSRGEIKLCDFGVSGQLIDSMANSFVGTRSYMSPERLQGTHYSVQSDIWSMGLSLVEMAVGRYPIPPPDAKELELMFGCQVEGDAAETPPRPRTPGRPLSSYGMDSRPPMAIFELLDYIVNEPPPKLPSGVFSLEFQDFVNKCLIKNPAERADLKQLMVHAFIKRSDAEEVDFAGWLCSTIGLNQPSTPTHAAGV
Sequence of UniProt P19801 (whole entry, looked up): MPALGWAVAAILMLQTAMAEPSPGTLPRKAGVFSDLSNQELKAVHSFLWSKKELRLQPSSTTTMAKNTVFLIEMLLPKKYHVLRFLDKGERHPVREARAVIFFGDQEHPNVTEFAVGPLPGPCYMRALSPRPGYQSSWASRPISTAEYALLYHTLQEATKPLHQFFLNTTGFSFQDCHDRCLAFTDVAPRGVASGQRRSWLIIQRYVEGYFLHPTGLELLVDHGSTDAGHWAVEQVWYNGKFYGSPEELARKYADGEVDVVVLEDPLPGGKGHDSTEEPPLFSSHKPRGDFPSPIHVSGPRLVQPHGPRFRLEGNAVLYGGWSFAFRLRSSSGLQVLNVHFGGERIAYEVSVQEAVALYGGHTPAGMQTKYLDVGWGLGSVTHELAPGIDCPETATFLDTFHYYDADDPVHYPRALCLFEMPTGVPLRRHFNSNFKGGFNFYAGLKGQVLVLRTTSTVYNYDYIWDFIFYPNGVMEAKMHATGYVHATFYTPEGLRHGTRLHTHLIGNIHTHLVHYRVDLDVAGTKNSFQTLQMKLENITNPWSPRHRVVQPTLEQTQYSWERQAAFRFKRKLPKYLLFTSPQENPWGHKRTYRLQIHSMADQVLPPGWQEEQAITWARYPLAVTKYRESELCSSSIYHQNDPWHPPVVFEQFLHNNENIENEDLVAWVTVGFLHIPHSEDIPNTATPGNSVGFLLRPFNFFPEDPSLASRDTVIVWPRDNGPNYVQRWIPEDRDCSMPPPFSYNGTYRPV
Sequence of UniProt Q86UE8 (whole entry, looked up): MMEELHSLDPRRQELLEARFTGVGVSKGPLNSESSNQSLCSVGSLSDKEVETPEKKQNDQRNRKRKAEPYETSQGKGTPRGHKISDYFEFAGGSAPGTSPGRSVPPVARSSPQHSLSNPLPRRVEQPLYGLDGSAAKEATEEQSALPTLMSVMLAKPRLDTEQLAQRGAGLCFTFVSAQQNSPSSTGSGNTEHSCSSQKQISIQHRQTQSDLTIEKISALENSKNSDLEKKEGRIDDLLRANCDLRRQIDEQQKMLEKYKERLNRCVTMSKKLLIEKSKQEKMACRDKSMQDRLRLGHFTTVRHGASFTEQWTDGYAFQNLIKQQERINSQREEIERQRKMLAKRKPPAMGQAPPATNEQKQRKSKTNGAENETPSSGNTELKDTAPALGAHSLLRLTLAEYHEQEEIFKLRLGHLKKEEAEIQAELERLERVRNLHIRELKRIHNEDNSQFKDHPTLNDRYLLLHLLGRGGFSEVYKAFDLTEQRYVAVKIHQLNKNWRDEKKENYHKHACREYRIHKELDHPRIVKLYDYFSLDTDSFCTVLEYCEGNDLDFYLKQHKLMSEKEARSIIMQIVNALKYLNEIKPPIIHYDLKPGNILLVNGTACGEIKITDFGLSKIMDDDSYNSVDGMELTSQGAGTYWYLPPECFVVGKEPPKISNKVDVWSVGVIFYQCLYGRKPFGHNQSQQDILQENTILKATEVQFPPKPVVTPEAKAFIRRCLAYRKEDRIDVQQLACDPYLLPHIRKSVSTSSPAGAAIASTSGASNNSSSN
Sequence of UniProt Q86Y07 (whole entry, looked up): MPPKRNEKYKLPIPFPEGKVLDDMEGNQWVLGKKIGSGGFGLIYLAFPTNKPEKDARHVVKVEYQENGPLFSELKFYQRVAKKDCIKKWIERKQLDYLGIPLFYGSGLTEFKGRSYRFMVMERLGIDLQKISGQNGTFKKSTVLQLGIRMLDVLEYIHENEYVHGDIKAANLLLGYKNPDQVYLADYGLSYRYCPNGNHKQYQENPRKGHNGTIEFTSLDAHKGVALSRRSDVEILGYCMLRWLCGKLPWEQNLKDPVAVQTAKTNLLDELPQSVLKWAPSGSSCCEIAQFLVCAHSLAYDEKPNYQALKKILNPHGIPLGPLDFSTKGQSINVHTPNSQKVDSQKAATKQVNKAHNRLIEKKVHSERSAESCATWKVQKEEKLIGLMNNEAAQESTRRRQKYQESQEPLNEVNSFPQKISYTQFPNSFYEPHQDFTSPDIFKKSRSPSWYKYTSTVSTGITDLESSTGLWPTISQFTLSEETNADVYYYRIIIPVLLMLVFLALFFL
Sequence of UniProt P27361 (whole entry, looked up): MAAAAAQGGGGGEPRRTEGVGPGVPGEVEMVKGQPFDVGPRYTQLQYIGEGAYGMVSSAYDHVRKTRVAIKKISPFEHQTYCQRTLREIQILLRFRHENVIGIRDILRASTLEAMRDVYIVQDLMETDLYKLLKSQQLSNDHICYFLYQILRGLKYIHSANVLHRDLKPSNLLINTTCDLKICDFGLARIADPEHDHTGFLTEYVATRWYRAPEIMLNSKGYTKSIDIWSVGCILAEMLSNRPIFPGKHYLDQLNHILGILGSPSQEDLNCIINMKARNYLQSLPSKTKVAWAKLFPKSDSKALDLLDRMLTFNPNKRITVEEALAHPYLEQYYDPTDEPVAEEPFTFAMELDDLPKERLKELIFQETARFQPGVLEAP
Sequence of UniProt Q9NYV4 (whole entry, looked up): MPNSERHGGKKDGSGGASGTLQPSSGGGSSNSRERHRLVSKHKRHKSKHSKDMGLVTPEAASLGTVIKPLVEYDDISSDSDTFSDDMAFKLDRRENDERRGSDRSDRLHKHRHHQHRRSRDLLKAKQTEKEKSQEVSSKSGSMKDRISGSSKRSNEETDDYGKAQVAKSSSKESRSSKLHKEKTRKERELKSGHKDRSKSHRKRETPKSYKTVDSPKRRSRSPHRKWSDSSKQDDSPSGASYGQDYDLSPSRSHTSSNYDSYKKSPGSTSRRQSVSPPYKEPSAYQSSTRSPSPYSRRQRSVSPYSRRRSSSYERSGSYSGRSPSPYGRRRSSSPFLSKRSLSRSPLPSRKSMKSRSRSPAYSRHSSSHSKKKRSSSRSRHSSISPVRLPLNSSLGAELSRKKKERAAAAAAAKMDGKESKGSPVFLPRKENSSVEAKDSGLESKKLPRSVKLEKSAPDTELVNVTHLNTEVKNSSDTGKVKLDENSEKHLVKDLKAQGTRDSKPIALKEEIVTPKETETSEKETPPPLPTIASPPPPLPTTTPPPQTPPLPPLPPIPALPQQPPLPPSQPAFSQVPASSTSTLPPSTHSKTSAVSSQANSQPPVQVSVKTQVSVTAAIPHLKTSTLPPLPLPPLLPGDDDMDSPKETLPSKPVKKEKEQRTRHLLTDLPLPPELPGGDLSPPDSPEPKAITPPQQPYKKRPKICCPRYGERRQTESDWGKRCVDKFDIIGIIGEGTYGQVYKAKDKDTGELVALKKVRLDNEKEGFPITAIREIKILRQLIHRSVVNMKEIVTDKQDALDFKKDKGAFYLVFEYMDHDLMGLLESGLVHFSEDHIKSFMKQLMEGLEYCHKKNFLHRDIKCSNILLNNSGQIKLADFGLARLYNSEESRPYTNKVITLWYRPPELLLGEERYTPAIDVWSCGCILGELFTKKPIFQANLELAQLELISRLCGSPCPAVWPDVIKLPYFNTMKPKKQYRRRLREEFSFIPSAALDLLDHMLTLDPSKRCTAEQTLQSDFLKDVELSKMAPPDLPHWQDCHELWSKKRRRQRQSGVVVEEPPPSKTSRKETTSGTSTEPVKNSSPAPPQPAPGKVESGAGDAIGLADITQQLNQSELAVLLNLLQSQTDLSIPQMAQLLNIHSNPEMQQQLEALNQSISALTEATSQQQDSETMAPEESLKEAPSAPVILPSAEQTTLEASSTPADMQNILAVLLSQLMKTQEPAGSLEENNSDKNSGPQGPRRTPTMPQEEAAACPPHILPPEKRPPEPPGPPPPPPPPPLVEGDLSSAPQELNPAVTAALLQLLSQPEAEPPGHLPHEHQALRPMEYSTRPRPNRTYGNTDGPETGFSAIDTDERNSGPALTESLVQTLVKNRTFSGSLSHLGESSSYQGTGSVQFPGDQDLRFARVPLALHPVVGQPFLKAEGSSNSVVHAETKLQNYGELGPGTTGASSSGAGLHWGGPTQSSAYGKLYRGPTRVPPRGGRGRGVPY

Structure (SMILES)	target	test	conditions	endpoint	result
COc1cc(CNC(=O)c2cccc(CCl)c2)cc(Br)c1OC	rep papain-like protease	enzyme activity, inhibitor, FRET	10 µM	inhibition	31%
C=CC(=O)N1CCC(COCC(=O)N2CCN(c3nc(-c4cnc(N)nc4C(F)F)nc(N4CCOC[C@@H]4C)n3)CC2)CC1	Serine/threonine-protein kinase tousled-like 2 (TLK2, Homo sapiens, UniProt Q86UE8)	binding, competition with immobilised ligand	1 µM	remaining binding	100%
Cc1cc(NS(=O)(=O)c2ccc(N=NN(C)O)cc2)no1	AMY2	enzyme activity, inhibitor	60 µg/mL	inhibition	15.8%
CC[C@H](C)[C@H](NC(=O)[C@H](CCC(N)=O)NC(=O)[C@@H](NC(=O)[C@H](CCSC)NC(=O)[C@H](CCCCN)NC(=O)[C@H](CO)NC(=O)[C@@H](NC(=O)[C@H](CCSC)NC(=O)[C@H](CC(C)C)NC(=O)[C@H](CC(N)=O)NC(=O)[C@@H](NC(=O)[C@@H](NC(=O)[C@H](CO)NC(=O)[C@H](CC(C)C)NC(=O)[C@H](C)NC(=O)[C@H](CCCNC(=N)N)NC(=O)[C@H](CCC(=O)O)NC(=O)[C@H](Cc1ccc(O)cc1)NC(=O)[C@H](Cc1ccccc1)NC(=O)[C@H](C)NC(=O)[C@H](CC(N)=O)NC(=O)[C@@H](N)CCCCN)[C@@H](C)CC)[C@@H](C)CC)[C@@H](C)O)C(C)C)C(=O)N[C@@H](CC(N)=O)C(=O)N[C@H](C(=O)O)C(C)C	Mitogen-activated protein kinase 3 (MAPK3, Homo sapiens, UniProt P27361)	enzyme activity, inhibitor, radiometric	50 µM	inhibition	2%
CN1CC(Oc2cnc(C#N)cc2-c2ccn3nc(NC(=O)C4CC4)cc3c2)C1	Cyclin-dependent kinase 12, with cyclin K (CDK12, Homo sapiens, UniProt Q9NYV4)	enzyme activity, inhibitor	1 µM	inhibition	-17%
O=C(NCc1cc(O)c(O)c(Br)c1)c1cccc(Br)c1	rep papain-like protease	enzyme activity, inhibitor, FRET	10 µM	inhibition	57.2%
CNc1ncc2c(/C=C/C(=O)N3CCC(OC)CC3)nn(Cc3cccc(C(F)(F)F)c3)c2n1	Serine/threonine-protein kinase VRK2 (VRK2, Homo sapiens, UniProt Q86Y07)	enzyme activity, inhibitor, radiometric	1 µM	remaining activity	112%
CCCCC(=O)Nc1ccc(-c2ccc3ncn(CCC)c(=O)c3c2)cn1	Cyclin-dependent kinase 19 (CDK19, Homo sapiens, UniProt Q9BWU1)	binding, competition with immobilised ligand	0.5 µM	remaining binding	77%
CCN(O)N=Nc1ccc(S(=O)(=O)Nc2cc(C)on2)cc1	AMY2	enzyme activity, inhibitor	240 µg/mL	inhibition	63.2%
Cc1cc([C@@H](C)Nc2ccccc2C(=O)O)c2nc(N3CCC(F)(F)CC3)c(C#N)c(=O)n2c1	Dual specificity mitogen-activated protein kinase kinase 1 (MAP2K1, Homo sapiens, UniProt Q02750)	binding, competition with immobilised ligand	1 µM	remaining binding	76%
NC/C(=C\F)COc1cccc(Cn2c(=S)[nH]c(=O)c3[nH]cnc32)c1	Diamine oxidase [copper-containing] (AOC1, Homo sapiens, UniProt P19801)	enzyme activity, inhibitor	1.4 nM	inhibition	2.88%
COc1cc(CNC(=O)c2ccco2)cc(Br)c1OC	rep papain-like protease	enzyme activity, inhibitor, FRET	10 µM	inhibition	7.88%
CCCN(O)N=Nc1ccc(S(=O)(=O)Nc2nccs2)cc1	AMY2	enzyme activity, inhibitor	120 µg/mL	inhibition	36.8%
